Assay results gathered from unrelated publications.
Lines come from different studies, so protocols differ. Numbers after ± are the reported error.
Cell line: NIH3T3

Compound	assay	setting	IC50 [µM]
CC(C)c1cccc(C(C)C)c1N=C1[O][Ir]([Cl])[n+]2ccccc21.Cc1c(C)c(C)[c-](C)c1C	cell growth or viability, SRB	24 h	> 200
Cc1ccc(=O)n(-c2ccc(NC(=O)[C@H](C)N(C)C)cc2)c1	cell growth or viability, CCK-8		246
O=c1oc2ccccc2cc1O	hyaluronan secretion	72 h	146 ± 92.4
O=C1/C(=C/c2ccc(B(O)O)cc2)CC/C1=C\c1ccc(B(O)O)cc1	cytotoxicity, MTT	24 h	> 250
Oc1ccc(-c2csc(Cc3ccccc3)n2)c(O)c1	cell growth or viability, resazurin	72 h	13.9
CN1CCN(C(=O)c2ccc(-c3ccc4c(c3)/C(=C/c3ccc(N5CCNCC5)cc3)C(=O)N4)cc2)CC1	cell growth or viability, WST-1	48 h	1.58
Cc1c(C)c(C)[c-](C)c1C.O=C1c2cccc[n+]2[Ir]([Cl])[N]1c1ccccc1	cell growth or viability, SRB	24 h	71
O=C1Nc2ccc(-c3ccc(C(=O)N4CCCC4)cc3)cc2/C1=C/c1ccc(N2CCNCC2)cc1	cell growth or viability, WST-1	48 h	0.18
C[C@@H](C(=O)Nc1ccc(Cn2cc(C(F)(F)F)ccc2=O)cc1)N(C)C	cell growth or viability, CCK-8		310
O=C1Nc2ccc(-c3ccc(C(=O)N4CCCCC4)cc3)cc2/C1=C/c1ccc(N2CCNCC2)cc1	cell growth or viability, WST-1	48 h	0.211
CO[C@H]1N(OC)c2ccccc2[C@@]12CN=C(Nc1cc(C(F)(F)F)cc(C(F)(F)F)c1)S2 (relative stereo)	cell viability, MTS	72 h	60.6 ± 3.35
